Published values gathered from unrelated publications.
Every numbered part comes from another study and shows a few of its results, in no order. Substitutions count along the parent as printed.
Chain of UniProt O15294 (whole entry, looked up): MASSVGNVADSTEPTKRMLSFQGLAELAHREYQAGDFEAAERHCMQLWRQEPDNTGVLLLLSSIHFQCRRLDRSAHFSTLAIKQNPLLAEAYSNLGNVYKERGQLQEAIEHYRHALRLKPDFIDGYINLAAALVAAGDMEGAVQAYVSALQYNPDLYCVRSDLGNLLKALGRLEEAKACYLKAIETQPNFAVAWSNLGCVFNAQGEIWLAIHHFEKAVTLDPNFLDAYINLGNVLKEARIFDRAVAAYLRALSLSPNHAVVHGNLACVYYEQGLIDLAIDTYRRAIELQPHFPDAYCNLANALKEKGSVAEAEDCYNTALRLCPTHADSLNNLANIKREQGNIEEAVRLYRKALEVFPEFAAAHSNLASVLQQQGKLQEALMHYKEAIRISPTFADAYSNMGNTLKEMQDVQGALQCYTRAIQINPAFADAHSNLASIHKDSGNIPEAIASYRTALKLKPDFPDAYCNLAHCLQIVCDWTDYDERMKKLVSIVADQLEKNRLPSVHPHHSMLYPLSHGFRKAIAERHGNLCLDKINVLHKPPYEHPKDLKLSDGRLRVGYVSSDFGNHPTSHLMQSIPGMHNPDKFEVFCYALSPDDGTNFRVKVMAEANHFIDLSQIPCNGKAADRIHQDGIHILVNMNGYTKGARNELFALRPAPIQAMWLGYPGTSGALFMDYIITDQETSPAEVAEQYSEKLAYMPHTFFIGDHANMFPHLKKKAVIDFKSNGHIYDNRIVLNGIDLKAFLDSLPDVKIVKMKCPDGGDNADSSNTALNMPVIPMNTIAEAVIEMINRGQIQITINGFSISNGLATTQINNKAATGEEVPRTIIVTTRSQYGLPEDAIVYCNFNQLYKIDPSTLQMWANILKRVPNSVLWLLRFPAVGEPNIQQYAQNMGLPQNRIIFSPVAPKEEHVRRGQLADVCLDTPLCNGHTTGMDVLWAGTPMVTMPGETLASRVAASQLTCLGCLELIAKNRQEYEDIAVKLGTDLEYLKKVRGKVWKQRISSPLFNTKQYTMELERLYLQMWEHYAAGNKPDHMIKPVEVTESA

Study 1
Target: Sox, HMG box (Pigoraptor chileana)
Method: Spec-seq
Form: double-stranded DNA, one strand shown
Sample: in vitro
Tested at: not given
Notes: whole probe, mean of replicates
Baseline: not given
Reading: lower = stronger binding
Constant ends, left off below: GAGTCGTCTCGTCAGCAC … CCGTAGAGCACTCAGGTC
Target sequence (chain): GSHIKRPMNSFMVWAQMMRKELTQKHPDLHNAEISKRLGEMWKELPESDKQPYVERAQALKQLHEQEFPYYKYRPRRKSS
Sequence	relative binding energy [ln ratio]
CATTTAT	-0.513
AGCCGTT	0.415
ACCAGTT	0.0331
CCAGGTT	1.22
GACTGTT	-1.42
CATAATC	-0.413
CATGTTC	0.764
ACGAGTT	0.601

Study 2
Target: Histone acetyltransferase KAT6A, both winged helices, GST fusion (KAT6A, Homo sapiens, UniProt Q92794, residues 1-181)
Method: protein binding microarray
Form: double-stranded DNA, one strand shown
Sample: in vitro
Tested at: not given
Notes: 8-mer, flanks averaged, mean of 2 arrays, mostly near background
Baseline: not given
Reading: higher = stronger binding
Target sequence (chain): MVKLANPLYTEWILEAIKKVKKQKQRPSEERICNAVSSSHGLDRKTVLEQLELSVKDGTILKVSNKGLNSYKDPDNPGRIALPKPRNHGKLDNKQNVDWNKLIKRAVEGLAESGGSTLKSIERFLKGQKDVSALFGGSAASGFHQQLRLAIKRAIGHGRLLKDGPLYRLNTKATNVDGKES
Sequence	E-score
ACCTAGAC	0.0207
CGGACTGA	0.125
AAATAGAC	-0.1
CGATATCC	-0.0741
GGTGTTAA	0.0751
ACGGCATA	0.291
CATAGCGG	0.269
ATTCTACG	-0.00148

Single results of other studies
P1: viral docking peptide; YKVKRRLVFGADD; partner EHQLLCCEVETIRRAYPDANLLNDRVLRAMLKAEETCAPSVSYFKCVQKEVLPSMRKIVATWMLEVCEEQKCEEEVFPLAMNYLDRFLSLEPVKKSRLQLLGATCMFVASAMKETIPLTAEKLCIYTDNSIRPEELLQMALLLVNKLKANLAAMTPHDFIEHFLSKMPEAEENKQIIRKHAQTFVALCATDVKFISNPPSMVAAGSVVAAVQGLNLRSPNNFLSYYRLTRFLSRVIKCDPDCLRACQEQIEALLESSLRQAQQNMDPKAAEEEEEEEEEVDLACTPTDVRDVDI
Substance	target	test	system	conditions	how to read	endpoint	value
P1 A11C	CCND1, cyclin fold, Cln2 fusion (human)	yeast growth competition, sequencing	yeast	strong parent motif	baseline: not given, higher = stronger binding	normalised enrichment score	2.04
WPHTMHAAKHDFHF	UDP-N-acetylglucosamine--peptide N-acetylglucosaminyltransferase 110 kDa subunit (OGT, Homo sapiens, UniProt O15294)	binding, phage display NGS	peptide	concentration not given, normalized abundance	baseline: input library	enrichment fold change	6.24

A few entries again (study 2):
Sequence	E-score
CGGACTGA	0.125
